Measurements collected from several papers.
Protocols differ between the studies behind these lines. pIC50: −log10 of the molar value.

SMILES | target | assay | test system | conditions | how to read | quantity | value
CCCCCCCCCCCCCCCCC(C(=O)O)C(O)(CC(=O)O)C(=O)O (centres unmarked) | biotinylated rabbit IgG | – | – | 11-point dose-response, protein A and streptavidin binding | – | maximum response | 5.4%
CCOP(=S)(OCC)SCn1c(=O)oc2cc(Cl)ccc21 | nanobody A4 | ic-ELISA | – | concentration not given | relative to: coumaphos IC50 over compound IC50, molar basis | cross-reactivity | 3%
CCCCCCCCCC(=O)N[C@H]1CCOC1=O | ExpR2 (Pectobacterium carotovorum) | cellulase activity, agonist | Pectobacterium carotovorum, single-ExpR2 strain | 200 µM, 4 h | relative to: OHHL | activation | 44%
CCOP(=S)(OCC)Oc1ccc(Cl)cc1Cl | nanobody A4 | binding, ic-ELISA | – | with: H1-OVA coating antigen | – | IC50 | > 4 µg/mL
O=C(CCc1ccc(Br)cc1)N[C@H]1CCOC1=O | ExpR2 (Pectobacterium carotovorum) | cellulase activity, antagonist | Pectobacterium carotovorum, single-ExpR2 strain | 5 µM, 4 h, with: OHHL 5 µM | – | inhibition | 66%
Nc1nc2c(ncn2[C@@H]2O[C@@H]3COP(=O)(O)O[C@H]4[C@@H](O)[C@H](n5cnc6c(N)ncnc65)O[C@@H]4COP(=O)(O)O[C@@H]2[C@@H]3O)c(=O)[nH]1 | STING (human) | Blue-Native PAGE | HEK293T expressing STING | 100 µM | – | time to peak STING oligomerization | ≤ 10 min
CCCCCCCCCCCCCCCC[N+](C)(C)Cc1ccccc1.[Cl-] | biotinylated rabbit IgG | – | – | 11-point dose-response, protein A and streptavidin binding | – | maximum response | 20.7%
COc1cc(Nc2ncc(F)c(Nc3ccc4c(n3)NC(=O)C(C)(C)O4)n2)cc(OC)c1OC | GABAA receptor chloride channel | binding | – | with: TBPS | – | pIC50 | < 5.00
CCOP(=S)(OCC)Oc1ccc([N+](=O)[O-])cc1 | nanobody A4 | binding, ic-ELISA | – | – | – | pIC50 | 6.72
Cc1cc(-n2c(=O)[nH]c(=O)n(C)c2=O)ccc1Oc1ccc(SC(F)(F)F)cc1 | biotinylated rabbit IgG | – | – | 11-point dose-response, protein A and streptavidin binding | – | maximum response | -13.8%
CCCCCC(=O)CC(=O)N[C@H]1CCOC1=O | ExpR2 (Pectobacterium carotovorum) | cellulase activity, agonist | Pectobacterium carotovorum, single-ExpR2 strain | 200 µM, 4 h | relative to: OHHL | activation | 78%
CCOP(=S)(OCC)SCCSCC | nanobody A4 | ic-ELISA | – | concentration not given | relative to: coumaphos IC50 over compound IC50, molar basis | cross-reactivity | < 1%
CCCCCCCC/C=C/CCCCCCCC(=O)O | biotinylated rabbit IgG | – | – | 11-point dose-response, protein A and streptavidin binding | – | maximum response | 19.2%
O=C(Cc1cccc2ccccc12)N[C@H]1CCOC1=O | ExpR2 (Pectobacterium carotovorum) | cellulase activity, agonist | Pectobacterium carotovorum, single-ExpR2 strain | 200 µM, 4 h | relative to: OHHL | activation | 95%
CCOP(=S)(OCC)Oc1ccc2c(C)c(Cl)c(=O)oc2c1 | nanobody A4 | binding, ic-ELISA | – | with: H1-OVA coating antigen | – | IC50 | 0.0891 µg/mL
O=C(Cc1cccc(Cl)c1)N[C@H]1CCOC1=O | ExpR2 (Pectobacterium carotovorum) | cellulase activity, agonist | Pectobacterium carotovorum, single-ExpR2 strain | 200 µM, 4 h | relative to: OHHL | activation | 81%
O=C(Nc1cccnn1)N1CCN([C@@H]2CCOc3cc(C(F)(F)F)ccc32)CC1 | central benzodiazepine receptor | binding | – | 20 µM | – | inhibition | 6%

Repeated from above:
SMILES | target | assay | test system | conditions | how to read | quantity | value
Nc1nc2c(ncn2[C@@H]2O[C@@H]3COP(=O)(O)O[C@H]4[C@@H](O)[C@H](n5cnc6c(N)ncnc65)O[C@@H]4COP(=O)(O)O[C@@H]2[C@@H]3O)c(=O)[nH]1 | STING (human) | Blue-Native PAGE | HEK293T expressing STING | 100 µM | – | time to peak STING oligomerization | ≤ 10 min
CCCCCCCCCCCCCCCC[N+](C)(C)Cc1ccccc1.[Cl-] | biotinylated rabbit IgG | – | – | 11-point dose-response, protein A and streptavidin binding | – | maximum response | 20.7%
